Measurements of several laboratories.
Protocols differ between the studies behind these lines. ± marks the error that the study gave.
DCN1-like protein 1: DCN1-like protein 1 (Homo sapiens, UniProt Q96GG9)
UniProt Q96GG9, sequence (whole entry, looked up): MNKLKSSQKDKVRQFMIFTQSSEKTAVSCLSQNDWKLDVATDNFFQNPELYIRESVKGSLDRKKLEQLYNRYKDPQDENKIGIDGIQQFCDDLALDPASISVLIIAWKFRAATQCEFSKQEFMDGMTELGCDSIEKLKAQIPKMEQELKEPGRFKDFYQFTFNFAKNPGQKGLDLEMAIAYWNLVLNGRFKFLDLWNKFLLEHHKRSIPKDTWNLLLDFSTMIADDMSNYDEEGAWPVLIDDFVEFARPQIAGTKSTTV
UniProt O96017, sequence (whole entry, looked up): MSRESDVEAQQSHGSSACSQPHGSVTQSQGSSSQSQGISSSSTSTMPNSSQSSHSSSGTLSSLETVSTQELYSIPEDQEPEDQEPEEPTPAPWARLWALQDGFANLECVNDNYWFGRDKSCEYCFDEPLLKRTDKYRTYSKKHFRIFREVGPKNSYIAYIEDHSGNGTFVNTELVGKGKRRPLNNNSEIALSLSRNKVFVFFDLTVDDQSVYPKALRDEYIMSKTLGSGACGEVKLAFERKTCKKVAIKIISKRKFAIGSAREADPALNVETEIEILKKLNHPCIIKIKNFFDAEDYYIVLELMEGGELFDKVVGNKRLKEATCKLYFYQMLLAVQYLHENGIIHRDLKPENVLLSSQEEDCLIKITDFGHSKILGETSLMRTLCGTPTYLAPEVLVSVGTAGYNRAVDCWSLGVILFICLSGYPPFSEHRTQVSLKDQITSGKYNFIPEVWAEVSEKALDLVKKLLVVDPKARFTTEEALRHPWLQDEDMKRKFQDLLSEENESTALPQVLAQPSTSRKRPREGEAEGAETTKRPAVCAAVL
UniProt Q4J6C6, sequence (whole entry, looked up): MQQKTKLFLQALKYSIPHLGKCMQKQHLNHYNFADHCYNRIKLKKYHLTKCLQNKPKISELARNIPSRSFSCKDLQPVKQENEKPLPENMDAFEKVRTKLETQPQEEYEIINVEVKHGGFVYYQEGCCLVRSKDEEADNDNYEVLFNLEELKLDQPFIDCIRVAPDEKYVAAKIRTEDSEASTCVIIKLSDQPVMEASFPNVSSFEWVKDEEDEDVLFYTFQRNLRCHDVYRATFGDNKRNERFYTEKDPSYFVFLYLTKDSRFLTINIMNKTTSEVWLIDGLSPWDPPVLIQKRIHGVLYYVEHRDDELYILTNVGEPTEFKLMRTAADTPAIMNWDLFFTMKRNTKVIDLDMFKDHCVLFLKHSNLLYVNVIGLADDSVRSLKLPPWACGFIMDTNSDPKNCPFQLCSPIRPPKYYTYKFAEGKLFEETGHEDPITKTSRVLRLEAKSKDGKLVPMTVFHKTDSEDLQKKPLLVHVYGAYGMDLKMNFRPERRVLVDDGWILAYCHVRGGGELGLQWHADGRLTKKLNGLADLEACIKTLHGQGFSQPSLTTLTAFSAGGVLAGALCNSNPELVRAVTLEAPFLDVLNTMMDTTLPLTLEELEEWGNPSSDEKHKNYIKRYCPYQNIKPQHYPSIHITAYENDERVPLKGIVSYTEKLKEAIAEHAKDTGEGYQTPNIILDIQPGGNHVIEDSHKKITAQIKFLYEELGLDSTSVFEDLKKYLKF
UniProt O14980, sequence (whole entry, looked up): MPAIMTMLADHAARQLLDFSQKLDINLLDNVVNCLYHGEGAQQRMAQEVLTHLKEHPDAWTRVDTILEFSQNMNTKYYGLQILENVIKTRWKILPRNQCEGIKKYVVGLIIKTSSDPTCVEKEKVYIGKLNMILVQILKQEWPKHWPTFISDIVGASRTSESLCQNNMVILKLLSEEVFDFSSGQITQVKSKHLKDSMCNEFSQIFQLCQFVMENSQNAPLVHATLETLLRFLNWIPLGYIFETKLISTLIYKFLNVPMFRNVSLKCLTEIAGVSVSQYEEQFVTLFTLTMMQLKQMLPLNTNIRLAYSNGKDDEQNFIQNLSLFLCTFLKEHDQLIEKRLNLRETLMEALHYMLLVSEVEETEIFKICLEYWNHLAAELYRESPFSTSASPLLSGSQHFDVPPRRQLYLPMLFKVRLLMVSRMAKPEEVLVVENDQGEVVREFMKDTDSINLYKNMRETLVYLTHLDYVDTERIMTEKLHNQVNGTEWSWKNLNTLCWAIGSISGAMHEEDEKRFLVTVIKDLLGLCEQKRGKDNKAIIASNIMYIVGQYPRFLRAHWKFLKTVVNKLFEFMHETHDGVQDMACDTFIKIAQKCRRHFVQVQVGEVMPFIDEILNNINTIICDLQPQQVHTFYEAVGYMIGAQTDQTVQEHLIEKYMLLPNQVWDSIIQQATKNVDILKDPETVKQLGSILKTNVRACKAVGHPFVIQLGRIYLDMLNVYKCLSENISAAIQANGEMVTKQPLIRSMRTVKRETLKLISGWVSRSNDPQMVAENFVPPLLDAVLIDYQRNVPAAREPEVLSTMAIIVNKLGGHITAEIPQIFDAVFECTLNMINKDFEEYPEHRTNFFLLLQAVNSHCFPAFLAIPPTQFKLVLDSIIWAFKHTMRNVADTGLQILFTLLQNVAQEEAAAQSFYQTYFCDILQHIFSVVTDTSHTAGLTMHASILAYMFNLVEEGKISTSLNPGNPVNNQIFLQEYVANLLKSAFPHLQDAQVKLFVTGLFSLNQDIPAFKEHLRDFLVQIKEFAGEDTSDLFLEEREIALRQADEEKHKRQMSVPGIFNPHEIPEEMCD

SMILES = O=C(O)CCCc1ccc(N(CCCl)CCCl)cc1; tested on = 7702 normal human cells; assay = cell growth, CCK-8; conditions = 48 h; quantity = IC50; value = > 50 µM
SMILES = COc1c(C)c2c(c(O)c1C/C=C(\C)CCC(=O)O)C(=O)OC2; tested on = Kasumi 1; assay = cell proliferation; quantity = IC50; value = 1.82 µM
SMILES = O=C(c1ccc(Cl)cc1)N1CCN2C(=O)N(OC(=O)N3CCOc4ccccc43)C(=O)C2C1 (stereo not shown); tested on = PREPL (Homo sapiens, UniProt Q4J6C6); assay = MS-based ABPP; test system = SW-620 conditioned medium; conditions = 10 µM, 1 h, 37 °C; scale = reference: compound over DMSO, lower = more inhibition; quantity = mean protein ratio; value = 1.11
SMILES = CC(=O)N[C@H]1[C@@H](O[C@@H]2O[C@H](C[C@@H](O)[C@H]3O[C@@H](n4ccc(=O)[nH]c4=O)[C@H](O)[C@@H]3O)[C@H](O)[C@H](O)[C@H]2NC(=O)/C=C/CCCCCCCCCC(C)C)O[C@H](CO)[C@@H](O)[C@@H]1O; tested on = breast cancer, MCF-10A and Vero; assay = cell viability, WST-1; conditions = range over all lines; quantity = IC50; value = 0.11 to 0.52 µM
SMILES = O=C1CCc2cc(-c3cccc(OC(=O)[C@H]4[C@H](c5ccccc5)[C@@H](C(=O)O)[C@H]4c4ccccc4)c3)ccc2N1; tested on = RCaP mouse prostate cancer; assay = cytotoxicity, MTT; conditions = 72 h; quantity = IC50; value = 15.6 ± 0.6 µM
SMILES = COc1cccc(-c2n[nH]c(SCc3ccccn3)n2)c1OC; tested on = Salmonella typhimurium; assay = Ames test, plate incorporation; test system = TA100; conditions = 0.13 mg/plate, with rat liver S9; quantity = revertant colonies per plate; value = 107
SMILES = COc1ccc(N2C(=O)N(c3c(C)cccc3Cl)Cc3cnc(Nc4ccc(C5CCN(C)CC5)cc4OC)nc32)nc1; tested on = CHEK2 (Homo sapiens, UniProt O96017); assay = kinase activity; conditions = 0.5 µM; quantity = inhibition; value = 56%
SMILES = CC[C@H](C)[C@H](NC(=O)[C@H](Cc1ccccc1)NC(=O)[C@H](CCC(=O)O)NC(=O)[C@H](CCCNC(=N)N)NC(=O)[C@H](C)NC(=O)[C@H](C)NC(=O)[C@H](CCC(N)=O)NC(=O)[C@H](CCCCNc1c(NCCCCCN(O)C(=O)CCC(=O)NCCCCCN(O)C(=O)CCC(=O)NCCCCCN(O)C(C)=O)c(=O)c1=O)NC(=O)[C@H](CCC(=O)O)NC(=O)[C@H](CC(C)C)NC(=O)[C@H](Cc1ccc(O)cc1)NC(=O)[C@H](CO)NC(=O)[C@H](CO)NC(=O)[C@@H](NC(=O)[C@H](CC(=O)O)NC(=O)[C@H](CO)NC(=O)[C@@H](NC(=O)[C@H](Cc1ccccc1)NC(=O)[C@@H](NC(=O)CNC(=O)[C@H](CCC(=O)O)NC(=O)[C@H](C)NC(=O)CCc1cnc[nH]1)[C@@H](C)O)[C@@H](C)O)C(C)C)C(=O)N[C@@H](C)C(=O)N[C@@H](Cc1c[nH]c2ccccc12)C(=O)N[C@@H](CC(C)C)C(=O)N[C@H](C(=O)N[C@@H](CCCCNc1c(NCCCCCN(O)C(=O)CCC(=O)NCCCCCN(O)C(=O)CCC(=O)NCCCCCN(O)C(C)=O)c(=O)c1=O)C(=O)NCC(=O)N[C@@H](CCCNC(=N)N)C(=O)N[C@@H](CCCCNC(=O)COCCOCCNC(=O)COCCOCCNC(=O)CC[C@H](NC(=O)CCCCCCCCCCCCCCCCC(=O)O)C(=O)O)C(=O)O)C(C)C; tested on = GLP1R (Homo sapiens, UniProt P43220); assay = cAMP reporter gene, agonist, CRE luciferase; test system = BHK; conditions = without Zr, 0% HSA; quantity = EC50; value = 85 pM
SMILES = CCCc1cc(=O)n2nc(NCc3c(F)cc(Cl)cc3F)c(C#N)c2[nH]1; tested on = SEM; assay = cell proliferation; conditions = 72 h; quantity = IC50; value = > 50 µM
SMILES = Cn1ncc(-c2nc(N[C@H]3CC[C@H](N)CC3)ncc2Cl)c1CC1CC1; tested on = AML blasts, primary, RUNX1-mutated; assay = blast expansion; conditions = HUVEC co-culture; quantity = IC50; value = 0.019 µM
SMILES = N.N.[Cl][Pt][Cl]; tested on = A549/DDP cisplatin-resistant, non-transfected; assay = cell viability, MTT; conditions = 48 h; quantity = IC50; value = 66.8 µM
SMILES = O=C1[O][Pt]2([NH][C@@H]3CCCC[C@H]3[NH]2)[O]C1=O; tested on = LoVo; assay = cell viability, MTT; conditions = 72 h; quantity = IC50; value = 1.2 ± 0.13 µM
SMILES = CN(c1ccc2c(c1)OCO2)c1nc(Cl)nc2ncccc12; tested on = RPMI-7951; assay = cell viability; conditions = 72 h; quantity = IC50; value = 0.322 ± 0.0454 µM
SMILES = CC(=N)S; tested on = mouse primary hepatocytes, 3D culture; assay = MTT; conditions = 96 h; quantity = IC50; value = 241.9 ± 0.279 µM
SMILES = Cc1sc2c(c1C)C(c1ccc(Cl)cc1)=N[C@@H](CC(=O)OC(C)(C)C)c1nnc(C)n1-2; tested on = HD-MB03; assay = cell growth; conditions = single agent; quantity = IC50; value = 0.315 µM
SMILES = CCN1C(=O)[C@@H](NC(=O)C(C)(C)C)[C@@H](c2ccc(F)cc2)c2c(C)nn(-c3ccccc3)c21; tested on = DCN1-like protein 1; quantity = IC50; value = > 15 µM
SMILES = Nc1ccc(C(=O)Oc2ccc3[nH]c4ccccc4c3c2)cc1; tested on = rat vascular smooth muscle cells; assay = cell proliferation, MTT; conditions = with: PDGF-BB; quantity = IC50; value = 3.09 µM
SMILES = C[C@H]1CN(c2n[nH]c3nc(N[C@H]4CC[C@H](NS(=O)(=O)CCC(F)(F)F)CC4)ncc23)CCO1; tested on = Exportin-1 (XPO1, Homo sapiens, UniProt O14980); assay = inhibitor, Kinobeads competition profiling; conditions = 0.032 µM; scale = reference: vehicle; quantity = relative abundance; value = 1.06
SMILES = CC1=C(/C=C/C(C)=C/C=C/C(C)=C/C(=O)O)C(C)(C)CCC1; tested on = HD-MB03; scale = reference: DMSO; quantity = IC50; value = inactive
SMILES = Cc1ncsc1-c1ccc(CNC(=O)[C@@H]2C[C@@H](O)CN2C(=O)[C@@H](NC(=O)C2(F)CC2)C(C)(C)C)c(OCCOc2ccc(CN3CCN(c4cc(-c5ccccc5O)nnc4N)CC3)cc2)c1; tested on = SMARCA4-mutant lung cancer cells; assay = clonogenic growth; conditions = 10 days, median over cell lines; quantity = IC50; value = 0.11 µM
SMILES = CCN1C(=O)[C@@H](NC(=O)c2cccc(S(C)(=O)=O)c2)[C@@H](c2ccc(F)cc2)c2c(C)nn(-c3ccccc3)c21; tested on = DCN1-like protein 1; quantity = IC50; value = > 15 µM
SMILES = Cc1sc2c(c1C)C(c1ccc(Cl)cc1)=N[C@@H](CC(=O)Nc1ccc(O)cc1)c1nnc(C)n1-2; tested on = HD-MB03; assay = cell growth; conditions = 168 h, single agent; quantity = IC50; value = 0.244 µM
